# Results pooled from the literature.
# Each numbered part is a random draw from the data of one study; scales do not carry over between parts.
# Sequence of UniProt P42336 (whole entry, unmodified, looked up): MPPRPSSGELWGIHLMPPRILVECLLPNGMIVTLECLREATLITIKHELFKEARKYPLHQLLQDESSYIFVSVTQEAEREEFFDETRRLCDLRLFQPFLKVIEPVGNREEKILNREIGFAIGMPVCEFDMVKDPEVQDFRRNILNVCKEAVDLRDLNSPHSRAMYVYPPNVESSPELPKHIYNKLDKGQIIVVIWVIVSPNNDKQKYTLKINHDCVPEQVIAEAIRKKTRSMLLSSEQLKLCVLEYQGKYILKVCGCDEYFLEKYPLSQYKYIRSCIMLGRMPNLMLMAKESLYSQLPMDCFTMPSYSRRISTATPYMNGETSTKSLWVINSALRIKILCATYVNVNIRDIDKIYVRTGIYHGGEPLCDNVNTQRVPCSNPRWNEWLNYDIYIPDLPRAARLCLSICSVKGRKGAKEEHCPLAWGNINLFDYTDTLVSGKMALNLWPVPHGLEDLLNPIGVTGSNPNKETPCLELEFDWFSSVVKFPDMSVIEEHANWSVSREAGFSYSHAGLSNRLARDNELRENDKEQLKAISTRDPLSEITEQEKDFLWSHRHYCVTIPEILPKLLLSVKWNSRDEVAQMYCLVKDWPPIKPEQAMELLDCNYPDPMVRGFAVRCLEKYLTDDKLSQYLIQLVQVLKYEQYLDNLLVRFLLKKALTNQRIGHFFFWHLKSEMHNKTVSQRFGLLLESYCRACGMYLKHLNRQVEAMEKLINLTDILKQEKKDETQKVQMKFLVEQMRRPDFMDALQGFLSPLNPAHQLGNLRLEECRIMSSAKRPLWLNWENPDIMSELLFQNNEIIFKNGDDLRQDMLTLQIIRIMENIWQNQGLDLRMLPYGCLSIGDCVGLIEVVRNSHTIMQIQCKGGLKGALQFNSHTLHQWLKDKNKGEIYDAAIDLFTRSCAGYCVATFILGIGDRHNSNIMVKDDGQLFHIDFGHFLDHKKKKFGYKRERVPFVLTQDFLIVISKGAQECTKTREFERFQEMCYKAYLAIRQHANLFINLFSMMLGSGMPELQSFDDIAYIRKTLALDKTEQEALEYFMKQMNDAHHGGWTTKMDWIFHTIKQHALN
# Sequence of UniProt Q00537 (whole entry, looked up): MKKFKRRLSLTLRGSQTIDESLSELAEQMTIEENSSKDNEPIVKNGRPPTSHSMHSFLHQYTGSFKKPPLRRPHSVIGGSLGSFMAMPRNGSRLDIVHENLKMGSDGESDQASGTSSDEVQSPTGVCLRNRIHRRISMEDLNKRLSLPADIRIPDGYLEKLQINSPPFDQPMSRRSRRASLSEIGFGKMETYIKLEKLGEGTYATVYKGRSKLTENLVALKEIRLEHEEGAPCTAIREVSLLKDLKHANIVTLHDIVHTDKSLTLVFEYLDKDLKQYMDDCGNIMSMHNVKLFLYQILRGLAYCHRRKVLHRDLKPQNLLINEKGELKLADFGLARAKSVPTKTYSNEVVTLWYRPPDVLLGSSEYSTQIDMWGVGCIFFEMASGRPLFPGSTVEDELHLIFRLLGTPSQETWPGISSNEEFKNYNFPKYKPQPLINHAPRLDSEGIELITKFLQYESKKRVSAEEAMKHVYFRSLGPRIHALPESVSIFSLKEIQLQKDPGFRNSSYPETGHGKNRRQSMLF
# Sequence of UniProt O15530 (whole entry, looked up): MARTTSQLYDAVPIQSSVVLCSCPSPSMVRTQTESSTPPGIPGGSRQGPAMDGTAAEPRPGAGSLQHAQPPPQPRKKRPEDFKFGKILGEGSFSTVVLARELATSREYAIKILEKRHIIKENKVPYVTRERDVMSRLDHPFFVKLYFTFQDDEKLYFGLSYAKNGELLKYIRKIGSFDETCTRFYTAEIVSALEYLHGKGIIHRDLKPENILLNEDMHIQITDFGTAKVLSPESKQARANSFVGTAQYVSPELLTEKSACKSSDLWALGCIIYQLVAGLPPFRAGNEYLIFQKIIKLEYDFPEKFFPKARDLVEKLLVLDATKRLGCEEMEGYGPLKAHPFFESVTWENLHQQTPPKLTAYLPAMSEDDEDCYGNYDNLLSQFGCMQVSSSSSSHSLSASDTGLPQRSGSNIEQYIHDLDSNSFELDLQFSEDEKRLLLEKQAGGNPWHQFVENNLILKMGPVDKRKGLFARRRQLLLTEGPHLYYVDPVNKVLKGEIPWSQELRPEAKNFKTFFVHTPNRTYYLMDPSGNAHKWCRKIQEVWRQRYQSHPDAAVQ
# Sequence of UniProt Q96PF2 (whole entry, looked up): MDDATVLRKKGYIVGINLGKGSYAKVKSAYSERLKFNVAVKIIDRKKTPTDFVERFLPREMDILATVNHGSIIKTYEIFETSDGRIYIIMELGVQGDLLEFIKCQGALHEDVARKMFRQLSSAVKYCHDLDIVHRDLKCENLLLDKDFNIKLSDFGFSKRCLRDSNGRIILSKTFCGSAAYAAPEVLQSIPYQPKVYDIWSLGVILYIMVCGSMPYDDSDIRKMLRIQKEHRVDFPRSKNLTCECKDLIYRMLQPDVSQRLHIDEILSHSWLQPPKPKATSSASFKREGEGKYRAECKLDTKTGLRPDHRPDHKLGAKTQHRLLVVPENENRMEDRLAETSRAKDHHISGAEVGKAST
# Sequence of UniProt P30530 (whole entry, looked up): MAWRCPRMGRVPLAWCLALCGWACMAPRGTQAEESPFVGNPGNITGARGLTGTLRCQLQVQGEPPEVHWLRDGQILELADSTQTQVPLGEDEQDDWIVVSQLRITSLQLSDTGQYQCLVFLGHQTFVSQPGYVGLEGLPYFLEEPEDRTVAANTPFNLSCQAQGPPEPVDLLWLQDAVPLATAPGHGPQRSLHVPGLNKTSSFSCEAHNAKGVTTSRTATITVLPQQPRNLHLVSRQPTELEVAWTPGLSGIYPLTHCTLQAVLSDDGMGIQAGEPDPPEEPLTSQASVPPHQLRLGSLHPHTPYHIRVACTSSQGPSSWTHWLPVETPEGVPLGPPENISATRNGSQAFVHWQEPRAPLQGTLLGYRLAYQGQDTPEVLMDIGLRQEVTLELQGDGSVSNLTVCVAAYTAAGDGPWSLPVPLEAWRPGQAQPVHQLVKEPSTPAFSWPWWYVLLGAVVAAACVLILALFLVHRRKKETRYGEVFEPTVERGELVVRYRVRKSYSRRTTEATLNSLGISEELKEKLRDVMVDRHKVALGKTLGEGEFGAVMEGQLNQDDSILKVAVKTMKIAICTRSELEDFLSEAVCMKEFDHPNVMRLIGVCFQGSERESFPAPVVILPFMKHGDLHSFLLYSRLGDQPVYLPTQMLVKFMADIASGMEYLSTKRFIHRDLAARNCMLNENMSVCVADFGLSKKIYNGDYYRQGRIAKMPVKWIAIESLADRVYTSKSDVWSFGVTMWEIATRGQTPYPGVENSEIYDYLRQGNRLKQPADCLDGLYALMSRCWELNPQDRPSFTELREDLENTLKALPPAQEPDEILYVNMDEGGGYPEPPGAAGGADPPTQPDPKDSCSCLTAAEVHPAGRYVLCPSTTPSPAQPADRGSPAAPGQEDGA
# Sequence of UniProt Q9NYL2 (whole entry, looked up): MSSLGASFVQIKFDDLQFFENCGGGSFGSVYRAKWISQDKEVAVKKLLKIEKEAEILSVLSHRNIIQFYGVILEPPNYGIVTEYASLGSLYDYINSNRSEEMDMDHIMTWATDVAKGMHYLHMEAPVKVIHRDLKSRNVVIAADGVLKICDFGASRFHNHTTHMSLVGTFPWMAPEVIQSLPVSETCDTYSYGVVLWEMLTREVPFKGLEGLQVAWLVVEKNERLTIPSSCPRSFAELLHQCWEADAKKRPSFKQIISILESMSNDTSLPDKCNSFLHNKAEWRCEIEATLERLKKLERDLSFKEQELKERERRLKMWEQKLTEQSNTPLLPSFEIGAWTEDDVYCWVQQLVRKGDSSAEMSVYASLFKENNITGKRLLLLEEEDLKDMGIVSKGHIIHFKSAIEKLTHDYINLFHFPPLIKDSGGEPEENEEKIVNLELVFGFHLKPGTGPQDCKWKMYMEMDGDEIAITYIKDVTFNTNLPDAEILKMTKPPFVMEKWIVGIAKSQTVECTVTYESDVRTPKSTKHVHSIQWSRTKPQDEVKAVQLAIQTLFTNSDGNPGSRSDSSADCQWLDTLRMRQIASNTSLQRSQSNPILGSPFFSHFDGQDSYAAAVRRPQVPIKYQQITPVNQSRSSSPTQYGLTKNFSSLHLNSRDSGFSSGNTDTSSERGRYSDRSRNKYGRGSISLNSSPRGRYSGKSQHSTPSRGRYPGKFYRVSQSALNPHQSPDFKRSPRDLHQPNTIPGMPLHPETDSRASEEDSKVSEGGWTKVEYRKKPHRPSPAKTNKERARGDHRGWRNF
# Sequence of UniProt Q9H3Y6 (whole entry, looked up): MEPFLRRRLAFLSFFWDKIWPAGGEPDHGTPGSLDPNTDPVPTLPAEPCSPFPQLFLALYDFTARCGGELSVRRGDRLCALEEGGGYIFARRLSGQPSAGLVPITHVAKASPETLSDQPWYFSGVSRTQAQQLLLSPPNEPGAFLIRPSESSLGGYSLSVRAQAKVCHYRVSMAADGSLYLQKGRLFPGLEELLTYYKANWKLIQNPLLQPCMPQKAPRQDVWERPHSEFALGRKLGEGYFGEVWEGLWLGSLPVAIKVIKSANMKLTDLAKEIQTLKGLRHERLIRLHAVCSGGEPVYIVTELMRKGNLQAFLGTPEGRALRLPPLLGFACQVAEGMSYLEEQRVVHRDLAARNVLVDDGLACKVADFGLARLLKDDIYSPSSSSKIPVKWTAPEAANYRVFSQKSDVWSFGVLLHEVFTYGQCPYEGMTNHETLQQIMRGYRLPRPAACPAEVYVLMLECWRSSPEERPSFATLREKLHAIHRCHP
# Sequence of UniProt Q00534 (whole entry, looked up): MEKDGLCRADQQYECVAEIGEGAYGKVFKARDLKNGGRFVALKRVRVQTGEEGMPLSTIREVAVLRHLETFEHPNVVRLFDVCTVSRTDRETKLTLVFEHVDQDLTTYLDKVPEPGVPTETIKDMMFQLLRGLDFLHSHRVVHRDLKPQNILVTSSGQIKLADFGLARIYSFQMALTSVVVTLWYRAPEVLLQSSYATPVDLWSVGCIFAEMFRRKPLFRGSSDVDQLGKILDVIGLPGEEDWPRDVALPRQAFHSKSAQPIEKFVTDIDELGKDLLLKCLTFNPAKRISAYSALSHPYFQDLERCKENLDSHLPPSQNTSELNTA

# Sample 1
# Cell line: mouse MPNST tumor cells
# Method: high-content immunofluorescence imaging
# Refers to: nuclear SOX9
# Tested at: 10 µM
# Time: 12 h
# Setting: mean of 2 replicates
# Reference: DMSO control
# Direction: higher = more nuclear SOX9
SMILES,nuclear SOX9 intensity
CC(C)NC(=O)Cn1c(-c2ccc(F)c(Cl)c2)nc2ncc(OCCCN3CCOCC3)cc2c1=O,99.2 % of DMSO
CC(C)NNC(=O)c1ccncc1,102 % of DMSO
NC(=O)n1c(O)c(C(=O)c2cccs2)c2cc(Cl)ccc21,86.3 % of DMSO
CCn1c(-c2nonc2N)nc2c(C#CC(C)(C)O)ncc(OC[C@H]3CCCNC3)c21,185 % of DMSO
CCCCCCOc1nsnc1C1=CCCN(C)C1,107 % of DMSO

# Sample 2
# Cell line: A-375
# Tested at: 100 µM
# Time: 18 h
Compound,viability [%]
C[C@@H]1[C@H](O)[C@@H](C)/C=C/C=C/C=C/C=C/C=C/C=C/C=C/[C@H](O[C@@H]2O[C@H](C)[C@@H](O)[C@H](N)[C@@H]2O)C[C@@H]2O[C@](O)(C[C@@H](O)C[C@@H](O)[C@H](O)CC[C@@H](O)C[C@@H](O)CC(=O)O[C@H]1C)C[C@H](O)[C@H]2C(=O)O,94.4
NC(=O)c1ncn([C@@H]2O[C@H](CO)[C@@H](O)[C@H]2O)n1,93.9
COc1cnc(NS(=O)(=O)c2ccc(N)cc2)nc1,88.8
COc1ccc(Cl)cc1C(=O)NCCc1ccc(S(=O)(=O)NC(=O)NC2CCCCC2)cc1,93
O=C(O)c1cn(-c2ccc(F)cc2)c2cc(N3CCNCC3)c(F)cc2c1=O,94.8
COc1cc2nccc(Oc3ccc(NC(=O)NC4CC4)c(Cl)c3)c2cc1C(N)=O,88.8
NC(N)=Nc1nc(CSCCC(N)=NS(N)(=O)=O)cs1,108
COc1cc2c(N3CCN(C(=O)Nc4ccc(OC(C)C)cc4)CC3)ncnc2cc1OCCCN1CCCCC1,16.2
CC1(O)CCC(C(C)(C)O)CC1 (stereo not shown),100
O=C(c1ccccc1)c1ccc2n1CCC2C(=O)O (stereo not shown),48.1
CC(/C=C1\SC(=S)N(CC(=O)O)C1=O)=C\c1ccccc1,108
COc1cc(CCC(=O)O)ccc1O,80.6
CCOc1ccc2nc3cc(N)ccc3c(N)c2c1,8.7

# Sample 3
# Structure (SMILES): CO[C@@H](C)c1c(Nc2ccc([C@H](N(C)C(=O)C3CCS(=O)(=O)CC3)C(F)(F)F)cc2)cnc2cc(Cl)nn12
# Method: competition with immobilised ligand
# Tested at: 1 µM
target,assay,remaining binding
"NUAK2 (Homo sapiens, UniProt Q9H093)",cell-free assay,100%
"Myosin-IIIa (MYO3A, Homo sapiens, UniProt Q8NEV4)",cell-free assay,100%
"PIKFYVE (Homo sapiens, UniProt Q9Y2I7)",cell-free assay,54%
"PLK3 (Homo sapiens, UniProt Q9H4B4)",cell-free assay,86%
"MAST1 (Homo sapiens, UniProt Q9Y2H9)",binding,43%
"PIK3CA (Homo sapiens, UniProt P42336, H1047L)",cell-free assay,92%
"PIK3C2G (Homo sapiens, UniProt O75747)",cell-free assay,88%
"MAP3K20 (Homo sapiens, UniProt Q9NYL2)",cell-free assay,100%
"CDK17 (Homo sapiens, UniProt Q00537)",cell-free assay,75%
"PIK3CA (Homo sapiens, UniProt P42336, M1043I)",cell-free assay,100%
"IRAK1 (Homo sapiens, UniProt P51617)",cell-free assay,93%
"Tyrosine-protein kinase JAK1, JH1 (JAK1, Homo sapiens, UniProt P23458)",cell-free assay,91%

# Sample 4
# Structure (SMILES): Nc1nc(Nc2ccc(S(N)(=O)=O)cc2)nn1C(=S)Nc1c(F)cccc1F
# Observed: enzyme activity
# Mode: inhibitor
# Tested at: 0.5 µM
# Reference: control
target,remaining activity [%]
"PDPK1 (Homo sapiens, UniProt O15530)",19.3
"SRMS (Homo sapiens, UniProt Q9H3Y6)",94
"Cyclin-dependent kinase 6, with cyclin D3 (CDK6, Homo sapiens, UniProt Q00534)",7.69
"STK17A (Homo sapiens, UniProt Q9UEE5)",11.1
"RPS6KA6 (Homo sapiens, UniProt Q9UK32)",2.42
"AXL (Homo sapiens, UniProt P30530)",34.2
"PHKG1 (Homo sapiens, UniProt Q16816)",26
"Cyclin-dependent kinase 4, with cyclin D3 (CDK4, Homo sapiens, UniProt P11802)",3.67
"HIPK2 (Homo sapiens, UniProt Q9H2X6)",62.1
"EPHB4 (Homo sapiens, UniProt P54760)",51
"BLK (Homo sapiens, UniProt P51451)",38.6
"MAP4K4 (Homo sapiens, UniProt O95819)",4.46
"STK16 (Homo sapiens, UniProt O75716)",42.5
"EPHB1 (Homo sapiens, UniProt P54762)",19.4
"EPHA4 (Homo sapiens, UniProt P54764)",54.8
"Cyclin-dependent kinase 1, with cyclin B (CDK1, Homo sapiens, UniProt P06493)",-1.78
"WNK3 (Homo sapiens, UniProt Q9BYP7)",82.2
"TSSK2 (Homo sapiens, UniProt Q96PF2)",91.3
"RPS6KA5 (Homo sapiens, UniProt O75582)",68.1
"DYRK3 (Homo sapiens, UniProt O43781)",98.5
"CAMK2B (Homo sapiens, UniProt Q13554)",9.5
"HIPK4 (Homo sapiens, UniProt Q8NE63)",50.6

# Some of these lines once more (sample 3):
target,assay,remaining binding
"Myosin-IIIa (MYO3A, Homo sapiens, UniProt Q8NEV4)",cell-free assay,100%
"CDK17 (Homo sapiens, UniProt Q00537)",cell-free assay,75%
"PIK3CA (Homo sapiens, UniProt P42336, M1043I)",cell-free assay,100%
"PIK3CA (Homo sapiens, UniProt P42336, H1047L)",cell-free assay,92%
"Tyrosine-protein kinase JAK1, JH1 (JAK1, Homo sapiens, UniProt P23458)",cell-free assay,91%
"MAST1 (Homo sapiens, UniProt Q9Y2H9)",binding,43%
"IRAK1 (Homo sapiens, UniProt P51617)",cell-free assay,93%
"PLK3 (Homo sapiens, UniProt Q9H4B4)",cell-free assay,86%
